Experimental data gathered from unrelated publications.
Each numbered part is a random draw from the data of one study; scales do not carry over between parts.

Sample 1 — technique: protein-binding microarray; form: double-stranded DNA, one strand shown; matrix: in vitro; concentration: 2540 nM top; notes: 60-bp whole probe; with: salmon DNA 0.4 mg/ml; reference: random background probes; direction: higher = stronger binding; all sequences stand within: GCCTAGCAC … GTCTTGATTCGCTTGACGCTGCTG
Target: Interferon regulatory factor 3, full length, phosphomimetic (IRF3, Homo sapiens, UniProt Q14653, residues 1-427, S386D/S396D/S398D/S402D/T404D/S405D)
Chain of UniProt Q14653 (whole entry, unmodified, looked up): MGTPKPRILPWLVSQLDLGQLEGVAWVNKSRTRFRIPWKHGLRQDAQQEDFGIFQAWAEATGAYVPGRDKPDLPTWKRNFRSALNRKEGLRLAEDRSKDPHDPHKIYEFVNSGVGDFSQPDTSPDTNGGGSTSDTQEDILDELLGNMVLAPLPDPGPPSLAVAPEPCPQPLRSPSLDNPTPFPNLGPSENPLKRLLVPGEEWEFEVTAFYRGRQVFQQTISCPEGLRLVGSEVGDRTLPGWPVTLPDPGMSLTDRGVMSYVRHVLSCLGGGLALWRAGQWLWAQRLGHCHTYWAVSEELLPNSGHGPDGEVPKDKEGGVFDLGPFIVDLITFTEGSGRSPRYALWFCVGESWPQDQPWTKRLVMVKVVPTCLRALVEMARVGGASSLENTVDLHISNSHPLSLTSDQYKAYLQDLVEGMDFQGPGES
Sequence | fitted relative affinity [z-score]
GACGGTATCGTACTGGGGACGTGCTAG | 1.13
TTAGGACTGGGTGTCGGTTAGTGCTAG | -0.0767
TTAGGTATCGGGACTGGGTTTGTGCTA | 1.01
GACGGACTGGACTACCGGGACGTGCTA | -0.515
GACGAACTGGTGTTTCGAGACGTGCTA | 0.436
GACGGTATTGACACTGGGGACGTGCTA | -0.317
GACGATATCGGGTTTCGAGTCGTGCTA | 1.52
TCATTTTTTTAATTGAAACTGTGCTAG | 1.3
TCAATTGGTTGAACATGACTGTGCTAG | -0.0654
TTAGGTCTCCTTATCCCTTAGTGCTAG | 2.7
TTGGGACTGGACTATCGGTTAGTGCTA | -0.827
GGTGGGGTGCAGCAGGGCCAGTGCTAG | -1.33
TTAGGTTTCCTTTCCCTGTAGTGCTAG | 10.2
TCACATATACACTGTGTAACTGTGCTA | 0.443
TTAGGACTACTACTGCTTTAGTGCTAG | -0.246
GACTGTCTCCTTATCCTGACGTGCTAG | 2.46
GACGGTTTACTTTCCCTGACGTGCTAG | 3.63
GTTTGTCCCTATTTAAGATAGTGCTAG | 2.08
AGCCATCTGCAGCAGGCCCCGTGCTAG | -0.886
GACGGTCTCAGTTTCGAGACGTGCTAG | 3.24
TTAGGTCTCCATATCCTTTAGTGCTAG | 2.17
TGACAGCAGGAACATGGGCTGTGCTAG | -0.914
GACGGTTTCATACTGCTGACGTGCTAG | 3.45
TCAGATTTCAATTAAAAACTGTGCTAG | 1.56
GACGGTCTCCTTATCCTGACGTGCTAG | 2.89

Sample 2 — technique: RNA Bind-n-Seq; form: RNA; matrix: in vitro; concentration: 365 nM; reference: no-protein control; direction: higher = stronger binding
Target: RNA binding protein fox-1 homolog 2, RRM domain, GST-SBP tag (RBFOX2, Homo sapiens, UniProt O43251-10, residues 100-194)
Notes: natural RNA segment, single round, ends assumed
All sequences stand within: GGGAGUUCUACAGUCCGACGAUC … UGGAAUUCUCGGGUGCCAA
Residues (chain): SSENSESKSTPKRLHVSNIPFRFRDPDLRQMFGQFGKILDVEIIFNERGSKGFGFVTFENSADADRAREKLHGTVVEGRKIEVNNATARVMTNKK
Sequence | RBNS enrichment (R)
UUUUUUGAGACCAAGUCUCACUCUGUUGCCCAGGCUGGAGUGCAGUGGCACGAUCUUGGCUUACUGCAACCUCCGUCUCCCAGGUUCAAGCGAUUCUCUUGCCUCAGCCU | 0.312
CUUGAAAGGUAUUAAGGAAAAAAUUCCACAUAGCUCUGGGCCUUUUUUGUAUUCUGAUUGCCACGUUAAUCUGUAAUCGUUAAGUACCCAUGAAAGAAUGUGUUUCAGUA | 0.487
AAUCUUUCUGAACUCCUGACUUACUCCAGUACACAAUGCCAAUCGCUGCACCAUUUGAUGUGCAUGUUUCAGCCCCUUUCAUUCUAAUUAUCCUAUUUCAAGUUUAUGGU | 5.27
ACUAGACCUUUGCUACCACUGUCUCUGGGUUUUUGUAUCAGUCCCAACUUCUCAGGCUGUCUUGCCCAAGAUGCAGGACCCCUACCUAGCCCACCUCCCAAGGCACCUGU | 0.238
AGAUCUCACAGAUGUCAGAACUGCUGGAACUAUGAAAUGGGGUAUAUAACCACGACUCUGGUGGGGAAAACCGUUUUUUAAAGGACACACACACACACAGCGAUGCAUCU | 1.32
GACUUUCUGUGCAGGAAUCAGUGUUGCUUGAGCGUGUGGCUGUAUUCACUGACAAGAGAAUAGAAACAAUAUGCCCACAUUGCUAUGUUUAUAAUUGCCAGAGCAGUAUU | 1.23
UAUGAUGAAGGGUUUGGGGUGUUUUUAUUUGUAGCAGAGGUAAGAAUAUGUAUUCAUAUAAUCUGCCUACUUUUGAGUUCUCAUAUUAACAUUUAGAUAACAUAUGAAGU | 0.456
CCCUUGUUCCAAAUGAAGACGGCAUCACGAAGCAGCUCCAAAAGGAAAAGCUUGGGCGGUGCCCAGCGUGCCCGCUGCCCAUCGACGUCUGUCCUGGGGACGUGGAGGGU | 0.414
GGGAGAAGAGAGGGUUUCCCUACAUAUCCCCAGAGAAAUCAGGUGACUUUUUCCCGGAGAUGGGGGUGGGGGAUGUUUAGGUCCCACUAUGAUGCAAGCAGCCAUGACCC | 0.677
UACCAGCAGGACUUGUUGCCAGUGAUACCAAAACAGACUUUUCCCAAGCAGUGCCUCACAUGUCUGCUGGUGUGGCUUUGGGAUUCUCCUGCCCCACCCCCCCGUCCAUG | 2.19
CCUGGGUCUGCACUCCCUCCCCUGUGCCUGACUAAGCCUUGUUCAUUGUUCUUUCAUCCUUACAAGGGACAGCCAGCCAAGGAGGAAAGGAGCCCAGCCCUGGGGAGGUG | 0.491
AAAUGAGAAGACGUGUUUUUUUCCUUCACCGAUGCUCCAUCCUCGUAUUUCUUUUUCCUUGUAAAUGUAAUCAGAUGCCAUUUUAUAUGUGGACGUAUUUAUACUGGCCA | 0.296

Sample 3 — technique: RNAcompete; form: RNA; matrix: in vitro; concentration: 20 nM; notes: 7-mer, probes averaged, single round; reference: mean of 7-mers; direction: higher = stronger binding
Target: PABPC1L2, full length, GST fusion (mouse, UniProt A0ABA7IW68)
Residues (chain): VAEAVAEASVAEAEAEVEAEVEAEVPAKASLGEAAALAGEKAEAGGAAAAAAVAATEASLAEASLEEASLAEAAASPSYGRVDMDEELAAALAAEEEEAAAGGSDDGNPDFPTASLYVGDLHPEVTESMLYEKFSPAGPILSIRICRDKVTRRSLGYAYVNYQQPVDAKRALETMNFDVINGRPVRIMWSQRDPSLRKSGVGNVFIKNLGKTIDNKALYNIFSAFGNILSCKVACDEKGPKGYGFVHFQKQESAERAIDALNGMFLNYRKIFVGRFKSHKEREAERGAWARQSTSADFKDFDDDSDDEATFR
Sequence | 7-mer Z-score
UCCAUAC | -0.164
GGGACUC | -0.0101
UUGUUUG | -0.501
UUCUUGC | -0.467
UUUUCAG | -0.222
CCCUACC | -0.44
UUUACUU | -0.139
UUUAUGG | 0.218
CGAGAGU | -0.141
UGCGAGC | -0.209
GGCUAGG | 0.278
ACGCGGC | -0.0663
GUAGCCU | -0.309
GCUGUCA | -0.15
ACGAAGA | 0.0569
GCUUAGG | -0.0518
UACGUCG | -0.391
CAAUGGU | -0.0301
GUAGCGA | -0.0264
CUCAAUG | -0.204
GACGGCU | 0.00798
CGCUAUC | -0.206
CCUAAGU | -0.322
GCGCAGG | 0.216

Sample 4 — technique: Spec-seq; form: double-stranded DNA, one strand shown; matrix: in vitro; concentration: not given; notes: whole probe, mean of replicates; reference: not given; direction: lower = stronger binding; all sequences stand within: GAGTCGTCTCGTCAGCAC … CCGTAGAGCACTCAGGTC
Target: Transcription factor SOX-2, HMG box (Sox2, Mus musculus, UniProt P48432, residues 41-119)
Chain of UniProt P48432 (41-119, looked up): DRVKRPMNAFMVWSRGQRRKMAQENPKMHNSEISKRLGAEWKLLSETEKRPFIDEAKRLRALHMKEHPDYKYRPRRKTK
Sequence | relative binding energy [ln ratio]
CATGATC | 0.207
CATCGTG | 0.49
CATTACG | -0.24
TCTGGTT | 0.849
AAAAGTT | -1.44
CATGAGG | 0.0622
CATTAGG | -0.191
CATAGCA | -0.262
ATATGTT | -0.0139
CATCTCG | 0.814
CAATGTT | -0.672
TTCAGTT | 0.108
GCCCGTT | 0.956
CGTGGTT | 1.08
CATAAAA | -0.615
ATTGGTT | -0.271
CATTACC | 0.249

Sample 5 — technique: protein binding microarray; form: double-stranded DNA, one strand shown; matrix: in vitro; concentration: not given; reference: not given; direction: higher = stronger binding
Target: Histone acetyltransferase KAT6A, winged helix 2, GST fusion (KAT6A, Homo sapiens, UniProt Q92794, residues 85-181)
Notes: 8-mer, flanks averaged, mean of 2 arrays, mostly near background
Target sequence (chain): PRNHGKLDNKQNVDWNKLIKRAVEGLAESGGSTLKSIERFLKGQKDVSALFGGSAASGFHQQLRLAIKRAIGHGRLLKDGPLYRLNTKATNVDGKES
Sequence | E-score
GCAAGTCC | -0.103
TAGGTATA | 0.0105
ATGAGCAG | 0.22
AATGTATG | -0.081
GCACGCGA | 0.0793
CCTGTTGA | 0.12
CTCTAGTC | -0.153
CAAGGTCC | 0.0868
AGAAGCCG | 0.214
CAATTCAC | 0.00721
CCGATGCA | 0.0262
TAGTGAAA | 0.0244
ACCCTAAC | -0.0111
AACTTGGG | -0.0369
CTCGCCCC | 0.165
AACGCCGT | 0.105
TCAGAACA | 0.0538
ATTGTCGC | 1.5e-05
TAGGCAAA | 0.00123
ACCCCAGT | -0.118

Other studies, line by line
Sequence | target | technique | form | notes | endpoint | value
AGGGAGGGAGGGAGGGAAAAAAA (RNA; intramolecular G-quadruplex) | G3BP1 fragment (Homo sapiens) | fluorescence polarization | folded RNA | KCl 150 mM | binding | binds

Excerpt of the above (sample 3):
Sequence | 7-mer Z-score
CGCUAUC | -0.206
UUCUUGC | -0.467
UACGUCG | -0.391
GGCUAGG | 0.278
ACGAAGA | 0.0569
UUUUCAG | -0.222
CCUAAGU | -0.322
UUGUUUG | -0.501
GACGGCU | 0.00798
ACGCGGC | -0.0663
GCUGUCA | -0.15
CGAGAGU | -0.141
UCCAUAC | -0.164
CCCUACC | -0.44
